Published values gathered from unrelated publications.
Compare with care: the assays were run in different laboratories. “And” joins repeats or separate records; there may be more than shown. Numbers after ± are the reported error.
SET K222D: Protein SET (SET, Homo sapiens, UniProt Q01105, K222D)
UniProt Q01105, sequence (whole entry, unmodified, looked up): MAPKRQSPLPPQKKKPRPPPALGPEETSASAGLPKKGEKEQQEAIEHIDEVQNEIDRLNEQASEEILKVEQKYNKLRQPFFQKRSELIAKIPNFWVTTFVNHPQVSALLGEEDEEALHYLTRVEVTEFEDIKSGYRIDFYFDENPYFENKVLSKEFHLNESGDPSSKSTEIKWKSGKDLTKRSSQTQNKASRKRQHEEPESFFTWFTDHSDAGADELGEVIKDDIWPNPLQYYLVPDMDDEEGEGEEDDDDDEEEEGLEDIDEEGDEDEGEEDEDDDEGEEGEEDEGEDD
Aryl hydrocarbon receptor: Aryl hydrocarbon receptor (Danio rerio, UniProt Q9YGV3)
T1: riboswitch RNA yjdF aptamer (Bacillus subtilis); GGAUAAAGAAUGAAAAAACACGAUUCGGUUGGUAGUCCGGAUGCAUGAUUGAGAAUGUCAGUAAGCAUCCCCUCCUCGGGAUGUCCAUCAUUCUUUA
T2: RNA aptamer; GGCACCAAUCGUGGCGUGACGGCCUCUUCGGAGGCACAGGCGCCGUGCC
UniProt P11388, sequence (whole entry, looked up): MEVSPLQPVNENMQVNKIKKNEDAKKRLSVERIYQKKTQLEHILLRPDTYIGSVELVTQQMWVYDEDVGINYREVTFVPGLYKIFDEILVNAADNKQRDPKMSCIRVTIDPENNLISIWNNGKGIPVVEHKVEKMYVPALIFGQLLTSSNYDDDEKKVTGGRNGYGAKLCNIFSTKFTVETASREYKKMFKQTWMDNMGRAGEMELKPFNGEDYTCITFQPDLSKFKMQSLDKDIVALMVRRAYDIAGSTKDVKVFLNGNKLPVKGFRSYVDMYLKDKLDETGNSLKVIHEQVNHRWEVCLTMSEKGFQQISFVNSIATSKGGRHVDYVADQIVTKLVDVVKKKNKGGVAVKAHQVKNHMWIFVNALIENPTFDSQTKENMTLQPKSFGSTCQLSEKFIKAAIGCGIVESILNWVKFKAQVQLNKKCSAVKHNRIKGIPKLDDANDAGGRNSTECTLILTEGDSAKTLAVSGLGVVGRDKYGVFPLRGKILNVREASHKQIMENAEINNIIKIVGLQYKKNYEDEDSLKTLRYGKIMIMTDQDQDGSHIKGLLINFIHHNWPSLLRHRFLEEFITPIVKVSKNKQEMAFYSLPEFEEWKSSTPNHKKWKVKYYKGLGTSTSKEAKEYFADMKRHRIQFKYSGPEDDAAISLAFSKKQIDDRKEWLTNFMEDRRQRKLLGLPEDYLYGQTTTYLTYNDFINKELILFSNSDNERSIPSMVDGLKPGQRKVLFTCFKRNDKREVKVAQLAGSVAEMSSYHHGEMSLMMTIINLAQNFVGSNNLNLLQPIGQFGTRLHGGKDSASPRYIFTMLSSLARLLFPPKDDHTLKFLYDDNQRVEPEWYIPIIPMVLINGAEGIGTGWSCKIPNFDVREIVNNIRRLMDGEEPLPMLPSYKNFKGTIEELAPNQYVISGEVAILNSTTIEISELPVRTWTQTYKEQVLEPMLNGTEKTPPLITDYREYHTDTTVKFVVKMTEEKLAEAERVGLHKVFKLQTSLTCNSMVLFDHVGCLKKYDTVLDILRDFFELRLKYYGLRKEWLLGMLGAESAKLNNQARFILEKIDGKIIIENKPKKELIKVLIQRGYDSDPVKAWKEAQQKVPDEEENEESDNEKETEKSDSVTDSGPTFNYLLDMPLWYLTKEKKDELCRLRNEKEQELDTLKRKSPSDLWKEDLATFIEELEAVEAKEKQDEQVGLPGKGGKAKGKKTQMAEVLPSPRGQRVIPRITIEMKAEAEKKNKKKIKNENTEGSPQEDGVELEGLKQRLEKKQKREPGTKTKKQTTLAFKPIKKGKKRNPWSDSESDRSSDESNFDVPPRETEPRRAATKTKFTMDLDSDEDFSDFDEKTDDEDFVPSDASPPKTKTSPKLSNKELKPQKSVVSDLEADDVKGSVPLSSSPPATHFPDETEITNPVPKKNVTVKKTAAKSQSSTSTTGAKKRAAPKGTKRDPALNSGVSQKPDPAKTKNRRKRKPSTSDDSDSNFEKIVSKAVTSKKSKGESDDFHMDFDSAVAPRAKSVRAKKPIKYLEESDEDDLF
UniProt P00519, sequence (whole entry, unmodified, looked up): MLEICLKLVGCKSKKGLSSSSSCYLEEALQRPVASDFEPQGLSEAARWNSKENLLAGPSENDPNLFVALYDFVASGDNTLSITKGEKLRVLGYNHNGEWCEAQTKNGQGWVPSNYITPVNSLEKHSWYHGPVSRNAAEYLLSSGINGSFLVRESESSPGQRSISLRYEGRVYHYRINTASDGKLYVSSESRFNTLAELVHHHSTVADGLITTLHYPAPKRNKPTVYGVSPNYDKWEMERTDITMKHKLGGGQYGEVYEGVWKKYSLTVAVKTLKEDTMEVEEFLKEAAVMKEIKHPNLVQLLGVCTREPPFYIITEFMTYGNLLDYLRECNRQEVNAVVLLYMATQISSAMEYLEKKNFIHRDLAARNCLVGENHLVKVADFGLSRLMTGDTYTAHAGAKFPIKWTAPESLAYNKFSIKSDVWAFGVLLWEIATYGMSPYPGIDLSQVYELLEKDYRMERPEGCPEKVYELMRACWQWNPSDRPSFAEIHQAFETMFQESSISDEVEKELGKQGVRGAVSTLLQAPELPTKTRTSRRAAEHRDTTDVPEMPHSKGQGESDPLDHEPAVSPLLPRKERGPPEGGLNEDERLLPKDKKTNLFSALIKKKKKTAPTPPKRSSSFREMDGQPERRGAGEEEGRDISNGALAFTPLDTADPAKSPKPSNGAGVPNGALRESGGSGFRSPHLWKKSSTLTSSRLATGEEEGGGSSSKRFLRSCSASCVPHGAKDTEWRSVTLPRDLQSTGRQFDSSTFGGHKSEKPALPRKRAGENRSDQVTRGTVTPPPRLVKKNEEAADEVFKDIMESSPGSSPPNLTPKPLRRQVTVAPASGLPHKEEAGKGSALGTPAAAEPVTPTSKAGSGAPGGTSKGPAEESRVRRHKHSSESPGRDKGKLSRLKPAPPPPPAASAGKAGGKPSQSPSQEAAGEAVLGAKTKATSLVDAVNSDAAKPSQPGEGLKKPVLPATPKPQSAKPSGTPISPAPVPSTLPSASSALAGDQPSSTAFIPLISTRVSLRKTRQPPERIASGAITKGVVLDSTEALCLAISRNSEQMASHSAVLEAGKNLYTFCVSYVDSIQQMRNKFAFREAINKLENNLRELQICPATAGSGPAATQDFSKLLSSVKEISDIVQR
UniProt P25090, sequence (whole entry, looked up): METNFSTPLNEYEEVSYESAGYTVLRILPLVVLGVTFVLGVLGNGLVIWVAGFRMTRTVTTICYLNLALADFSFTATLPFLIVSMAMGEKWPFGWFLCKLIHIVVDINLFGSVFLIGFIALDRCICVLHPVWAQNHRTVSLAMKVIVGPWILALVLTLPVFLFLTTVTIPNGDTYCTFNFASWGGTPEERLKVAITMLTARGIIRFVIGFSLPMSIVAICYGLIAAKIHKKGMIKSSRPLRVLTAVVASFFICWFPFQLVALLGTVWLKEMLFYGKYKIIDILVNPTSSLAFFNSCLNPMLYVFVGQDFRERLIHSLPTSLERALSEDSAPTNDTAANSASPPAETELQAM
UniProt Q16654, sequence (whole entry, looked up): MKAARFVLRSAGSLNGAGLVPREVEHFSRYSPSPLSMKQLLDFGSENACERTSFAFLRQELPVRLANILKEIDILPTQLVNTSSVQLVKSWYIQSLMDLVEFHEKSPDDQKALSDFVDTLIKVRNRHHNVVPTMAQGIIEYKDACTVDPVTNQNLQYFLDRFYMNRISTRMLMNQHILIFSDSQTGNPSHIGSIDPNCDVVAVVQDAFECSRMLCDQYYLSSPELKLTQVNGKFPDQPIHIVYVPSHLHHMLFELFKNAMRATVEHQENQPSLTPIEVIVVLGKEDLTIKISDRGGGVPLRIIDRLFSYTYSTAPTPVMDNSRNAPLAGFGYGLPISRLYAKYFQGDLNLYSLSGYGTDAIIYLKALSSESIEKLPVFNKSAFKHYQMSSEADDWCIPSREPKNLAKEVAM
UniProt Q9I4X0, sequence (whole entry, looked up): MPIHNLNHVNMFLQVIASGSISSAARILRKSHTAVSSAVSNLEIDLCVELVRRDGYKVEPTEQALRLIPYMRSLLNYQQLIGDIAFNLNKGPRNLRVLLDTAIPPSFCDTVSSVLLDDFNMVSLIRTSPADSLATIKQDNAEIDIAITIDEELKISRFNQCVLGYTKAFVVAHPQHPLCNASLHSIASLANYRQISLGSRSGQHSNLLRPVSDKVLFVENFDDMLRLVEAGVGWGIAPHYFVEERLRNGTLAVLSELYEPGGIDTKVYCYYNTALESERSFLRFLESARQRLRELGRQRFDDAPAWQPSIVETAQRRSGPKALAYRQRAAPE
UniProt P00698, sequence (whole entry, looked up): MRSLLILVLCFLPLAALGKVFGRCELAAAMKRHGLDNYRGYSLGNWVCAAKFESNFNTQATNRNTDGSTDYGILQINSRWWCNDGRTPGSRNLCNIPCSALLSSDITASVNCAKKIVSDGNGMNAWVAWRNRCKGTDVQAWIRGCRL
UniProt P51575, sequence (whole entry, unmodified, looked up): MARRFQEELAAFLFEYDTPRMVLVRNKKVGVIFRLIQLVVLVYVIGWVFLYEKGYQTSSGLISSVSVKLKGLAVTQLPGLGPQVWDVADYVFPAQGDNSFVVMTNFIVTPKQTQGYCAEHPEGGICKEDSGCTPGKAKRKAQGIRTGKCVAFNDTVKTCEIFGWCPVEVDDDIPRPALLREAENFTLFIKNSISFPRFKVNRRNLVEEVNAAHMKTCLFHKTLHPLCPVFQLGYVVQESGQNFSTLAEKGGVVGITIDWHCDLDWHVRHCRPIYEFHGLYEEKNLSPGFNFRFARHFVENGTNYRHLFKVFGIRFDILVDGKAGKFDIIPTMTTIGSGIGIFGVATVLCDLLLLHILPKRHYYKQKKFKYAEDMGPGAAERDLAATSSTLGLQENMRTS
UniProt Q16774, sequence (whole entry, unmodified, looked up): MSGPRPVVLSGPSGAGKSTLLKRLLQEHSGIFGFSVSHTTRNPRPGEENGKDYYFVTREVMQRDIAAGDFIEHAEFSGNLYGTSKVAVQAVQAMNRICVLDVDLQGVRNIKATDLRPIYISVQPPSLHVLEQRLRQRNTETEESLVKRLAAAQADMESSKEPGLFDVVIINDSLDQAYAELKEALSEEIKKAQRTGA

| SMILES | target | assay | system | conditions | scale | endpoint | value |
| --- | --- | --- | --- | --- | --- | --- | --- |
| O=C(Nc1cccc(O)c1O)c1cc2ccccc2oc1=O | Alpha-synuclein (SNCA, Homo sapiens, UniProt P37840) | fibril formation | – | 100 µM | reference: untreated | ThT fluorescence | 10.7 ± 0.2% |
| COc1cc(C#CC(=O)c2ccccc2)ccc1O | mvfR (Pseudomonas aeruginosa, UniProt Q9I4X0) | receptor binding | – | concentration not given, 1.5 h, with: PQS at 1:1 ratio | reference: control | binding | 87% |
| COc1cc(O)c2c(c1)oc(=O)c1c3cc(O)c(O)cc3oc21 | MAL12 (Saccharomyces cerevisiae S288c, UniProt P53341) | fluorescence quenching | – | 304 K | – | ΔS | -318 J/(mol·K) |
| Cc1cc2nc3[nH]c(=O)[nH]c(=O)c3nc2cc1C | T1, riboswitch RNA yjdF aptamer (Bacillus subtilis) | fluorescence titration | – | with: 380 nM lumichrome | – | Kd | 6 nM |
| O=C(c1cc(Cc2n[nH]c(=O)c3ccccc23)ccc1F)N1CCn2nc(C(F)(F)F)nc2C1 | PARP1/HPF1 (Homo sapiens, UniProt P09874+Q9NWY4) | fluorescence polarization | – | with: HPF1 | reference: PARP1 alone | affinity ratio | 4.4 fold |
| C[C@H](CCC(C)(C)O)[C@H]1CC[C@H]2[C@@H]3CC=C4C[C@@](C)(O)CC[C@]4(C)[C@H]3CC[C@]12C | Glutamate NMDA receptor; GRIN1/GRIN2B (GRIN1/GRIN2B, Homo sapiens, UniProt Q05586+Q13224, M555A) | positive allosteric modulator, two-electrode voltage clamp | Xenopus oocytes expressing GluN1-M555A | 10 µM, 0.02% cremophor, with: 100 µM glutamate and glycine | reference: without compound | current response | 216 ± 24% |
| COc1cc(-c2cc(C(C)=O)n3ccccc23)c(OC)cc1Cn1ccnc1 | SWI/SNF-related matrix-associated actin-dependent regulator of chromatin subfamily A member 2, isoform B (SMARCA2, Homo sapiens, UniProt P51531) | – | – | – | – | ΔTm | -0.5 °C |
| Cn1c2c(c3ccc(Cl)c(Cl)c31)C(C#N)C1(CCCC1)NC2=O (centres unmarked) | Serine/threonine-protein kinase VRK3 (VRK3, Homo sapiens, UniProt Q8IV63) | thermal stability, thermal shift | – | 10 µM | higher = stronger binding | delta Tm | 0 °C |
| CC[C@@H]1[C@H](F)C(=O)N[C@@H]1COc1nccc2cc(C(N)=O)c(OC)cc12 | STK16 (Homo sapiens, UniProt O75716) | ATP-site probe binding, ActivX profiling | THP-1 cell lysate | 0.04 mM, Lys1 site | – | inhibition | 27.8% |
| COC(=O)c1ccc(C(=O)c2c[nH]c3ccccc23)s1 | AHR (Homo sapiens, UniProt P35869) | reporter gene, agonist, XRE luciferase | HepG2 | – | reference: ITE | Emax | 67 ± 8% |
| CCCCCCCCCCCCC/C=C/[C@@H](O)[C@H](CO)NC(=O)CCCCCCCCCCCCCCCCCCCCCCC | SET K222D | lipid binding, GFP pull-down LC-MS/MS | A549 overexpressing GFP-tagged protein | unit not given | reference: vector-transfected cells | bound endogenous lipid | 0.3 |
| N#Cc1ccc(C[C@H](NC(=O)c2cc3ccccc3[nH]2)C(=O)N2CCc3ccccc32)cc1 | FPR2 (Homo sapiens, UniProt P25090) | cell-based | – | concentration not given | – | activity | inactive |
| COc1cc(-c2cncc3c2CN(C)Cc2cc(N4CCNCC4)ccc2-3)cc(OC)c1OC | PDK4 (Homo sapiens, UniProt Q16654) | kinase activity | – | 1 µM, human enzyme, with: ATP 10 µM | reference: DMSO control | remaining activity | 113% |
| O=C1C=CC(=O)c2c1ccc1ccccc21 | Aryl hydrocarbon receptor | reporter gene, agonist, luciferase reporter | ZF-4 | 41.15 µM | reference: vehicle control | fold change | 10.2 |
| CCCCCCCCCCCCC/C=C/[C@@H](O)[C@H](CO)NC(=O)CCCCCCCCCCCCCCC | SET K222D | lipid binding, GFP pull-down LC-MS/MS | A549 overexpressing GFP-tagged protein | – | reference: eluate plus flow-through | lipid fraction bound | 4% |
| O=c1nc(SCc2cc(F)cc(C(F)(F)F)c2)nc(SCc2ccc3nc(Cl)ccc3c2)[nH]1 | TOP2A (Homo sapiens, UniProt P11388) | ATPase activity | – | 7.8 µM, with: ATP 2 mM | – | ATP hydrolysis rate | 0.342 µM/min and 2.52 µM/min |
| Cc1cccc2c1ccc1cc(C(C)C)ccc12 | Aryl hydrocarbon receptor | reporter gene, agonist, luciferase reporter | ZF-4 | 4.572 µM | reference: vehicle control | fold change | 0.847 |
| CCCCCCCCCCCCC/C=C/[C@@H](O)[C@H](CO)NC(=O)CCCCCCCCCCCCCCCCC | Protein SET (SET, Homo sapiens, UniProt Q01105) | lipid binding, GFP pull-down LC-MS/MS | A549 overexpressing GFP-tagged protein | unit not given | reference: vector-transfected cells | bound endogenous lipid | 35.9 |
| CN(C)c1ncc(F)c(-c2cnn3ncccc23)n1 | ABL1 (Homo sapiens, UniProt P00519, F317I) | KINOMEscan | – | 1 µM | reference: control | remaining binding | 67% and 96% |
| O=C(COP(=O)(O)O)[C@@H](O)[C@H](O)[C@H](O)COP(=O)(O)O | Nucleolar protein 56 (Homo sapiens, UniProt O00567) | thermal proteome profiling, item: NOP56 | HepG2 cell lysate | concentration not given, 57 over 37 °C, mean | reference: compound over control | thermal stability ratio | 0.555 |
| Nc1ncnc2c1ncn2[C@@H]1O[C@H](COP(=O)(O)OP(=O)(O)O)[C@@H](O)[C@H]1O | GUK1 (Homo sapiens, UniProt Q16774) | ITC | – | molar ratio 1.741 | – | ΔH | -0.554 kcal/mol |
| O=C(O)C1CCCNC1 (centres unmarked) | SLC6A6 (Homo sapiens, UniProt P31641, Y138A) | binding, microscale thermophoresis | – | 46.3 nM, fitted curve | higher = more binding | fraction bound | 0.00229 |
| CCCCCCCCCCCCC/C=C/[C@@H](O)[C@H](CO)NC(=O)CCCCCCCCCCCCCCCCCCCCC | Protein SET (SET, Homo sapiens, UniProt Q01105, Y135C) | lipid binding, GFP pull-down LC-MS/MS | A549 overexpressing GFP-tagged protein | unit not given | reference: vector-transfected cells | bound endogenous lipid | 11.2 |
| CN(CCCCCCNC(=O)CNc1cccc2c1C(=O)N(C1CCC(=O)NC1=O)C2=O)Cc1cn(Cc2ccc(C(=O)NO)cc2)c2ccccc12.O=C(O)C(F)(F)F (centres unmarked) | HDAC6 (Homo sapiens, UniProt Q9UBN7) | degrader, western blot | MM1.S | 1 µM, 24 h | – | degradation | 94% |
| CN(CCO)c1ccc(/C=C(\C#N)c2ccc(C#N)cc2)cc1 | T2, RNA aptamer | fluorescence titration, Hill fit | – | apparent | – | Kd | 71.5 nM |
| C[n+]1cn([C@@H]2O[C@H](COP(=O)(O)OP(=O)(O)OP(=O)(O)OC[C@H]3O[C@@H](n4cnc5c(=O)[nH]c(N)nc54)[C@H](O)[C@@H]3O)[C@@H](O)[C@H]2O)c2nc(N)[nH]c(=O)c21 | EIF4E2 (Homo sapiens, UniProt O60573) | ITC | – | concentration not given, pH 7.5, 20 °C | – | binding stoichiometry | 1.01 ± 0.01 |
| Nc1ncnc2c1ncn2[C@@H]1O[C@H](COP(=O)(O)CP(=O)(O)OP(=O)(O)O)[C@@H](O)[C@H]1O | P2X purinoceptor 1 (P2RX1, Homo sapiens, UniProt P51575, R139P) | calcium influx | – | 3.16 nM | reference: ionomycin response | calcium influx | 0% |
| Nc1ccc2ccc3cccc4ccc1c2c34 | Aryl hydrocarbon receptor | reporter gene, agonist, luciferase reporter | ZF-4 | 30000 µM | reference: vehicle control | fold change | 1.04 |
| NCC(=O)O | Lysozyme C (LYZ, Gallus gallus, UniProt P00698) | binding, sedimentation equilibrium AUC | – | – | – | association constant | 3.2 ± 0.98 M⁻¹ |

A few entries again:
| SMILES | target | assay | system | conditions | scale | endpoint | value |
| --- | --- | --- | --- | --- | --- | --- | --- |
| NCC(=O)O | Lysozyme C (LYZ, Gallus gallus, UniProt P00698) | binding, sedimentation equilibrium AUC | – | – | – | association constant | 3.2 ± 0.98 M⁻¹ |
| O=C1C=CC(=O)c2c1ccc1ccccc21 | Aryl hydrocarbon receptor | reporter gene, agonist, luciferase reporter | ZF-4 | 41.15 µM | reference: vehicle control | fold change | 10.2 |
| O=C(Nc1cccc(O)c1O)c1cc2ccccc2oc1=O | Alpha-synuclein (SNCA, Homo sapiens, UniProt P37840) | fibril formation | – | 100 µM | reference: untreated | ThT fluorescence | 10.7 ± 0.2% |
| Cn1c2c(c3ccc(Cl)c(Cl)c31)C(C#N)C1(CCCC1)NC2=O (centres unmarked) | Serine/threonine-protein kinase VRK3 (VRK3, Homo sapiens, UniProt Q8IV63) | thermal stability, thermal shift | – | 10 µM | higher = stronger binding | delta Tm | 0 °C |
